Assay results of several laboratories.
± marks the error that the study gave.
Chain of UniProt P11510 (whole entry, looked up): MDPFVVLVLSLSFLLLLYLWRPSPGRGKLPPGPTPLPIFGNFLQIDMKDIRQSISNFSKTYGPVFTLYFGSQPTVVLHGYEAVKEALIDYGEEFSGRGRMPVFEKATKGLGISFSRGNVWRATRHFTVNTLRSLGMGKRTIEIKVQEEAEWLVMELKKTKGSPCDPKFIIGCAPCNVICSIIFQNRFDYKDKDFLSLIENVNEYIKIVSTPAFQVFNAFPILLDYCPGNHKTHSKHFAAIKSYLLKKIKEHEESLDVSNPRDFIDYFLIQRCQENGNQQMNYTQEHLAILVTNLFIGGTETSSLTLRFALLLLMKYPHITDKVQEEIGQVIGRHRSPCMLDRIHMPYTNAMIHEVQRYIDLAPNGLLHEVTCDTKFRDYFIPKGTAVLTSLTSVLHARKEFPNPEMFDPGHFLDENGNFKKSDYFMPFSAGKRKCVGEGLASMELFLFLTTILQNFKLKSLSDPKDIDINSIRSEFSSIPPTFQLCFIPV
Chain of UniProt P08684 (whole entry, looked up): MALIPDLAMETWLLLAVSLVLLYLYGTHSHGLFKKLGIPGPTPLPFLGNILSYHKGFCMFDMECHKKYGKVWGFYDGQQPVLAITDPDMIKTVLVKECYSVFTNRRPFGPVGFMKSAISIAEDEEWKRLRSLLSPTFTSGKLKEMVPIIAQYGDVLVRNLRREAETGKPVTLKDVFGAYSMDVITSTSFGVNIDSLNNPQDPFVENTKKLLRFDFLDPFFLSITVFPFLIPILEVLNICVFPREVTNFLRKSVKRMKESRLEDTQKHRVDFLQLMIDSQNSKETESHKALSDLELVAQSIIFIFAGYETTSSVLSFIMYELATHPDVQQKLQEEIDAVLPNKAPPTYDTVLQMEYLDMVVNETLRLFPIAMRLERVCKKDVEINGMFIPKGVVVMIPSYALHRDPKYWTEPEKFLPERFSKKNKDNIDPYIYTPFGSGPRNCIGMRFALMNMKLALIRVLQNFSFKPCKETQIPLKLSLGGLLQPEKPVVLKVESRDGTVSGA
Chain of UniProt Q08499 (whole entry, looked up): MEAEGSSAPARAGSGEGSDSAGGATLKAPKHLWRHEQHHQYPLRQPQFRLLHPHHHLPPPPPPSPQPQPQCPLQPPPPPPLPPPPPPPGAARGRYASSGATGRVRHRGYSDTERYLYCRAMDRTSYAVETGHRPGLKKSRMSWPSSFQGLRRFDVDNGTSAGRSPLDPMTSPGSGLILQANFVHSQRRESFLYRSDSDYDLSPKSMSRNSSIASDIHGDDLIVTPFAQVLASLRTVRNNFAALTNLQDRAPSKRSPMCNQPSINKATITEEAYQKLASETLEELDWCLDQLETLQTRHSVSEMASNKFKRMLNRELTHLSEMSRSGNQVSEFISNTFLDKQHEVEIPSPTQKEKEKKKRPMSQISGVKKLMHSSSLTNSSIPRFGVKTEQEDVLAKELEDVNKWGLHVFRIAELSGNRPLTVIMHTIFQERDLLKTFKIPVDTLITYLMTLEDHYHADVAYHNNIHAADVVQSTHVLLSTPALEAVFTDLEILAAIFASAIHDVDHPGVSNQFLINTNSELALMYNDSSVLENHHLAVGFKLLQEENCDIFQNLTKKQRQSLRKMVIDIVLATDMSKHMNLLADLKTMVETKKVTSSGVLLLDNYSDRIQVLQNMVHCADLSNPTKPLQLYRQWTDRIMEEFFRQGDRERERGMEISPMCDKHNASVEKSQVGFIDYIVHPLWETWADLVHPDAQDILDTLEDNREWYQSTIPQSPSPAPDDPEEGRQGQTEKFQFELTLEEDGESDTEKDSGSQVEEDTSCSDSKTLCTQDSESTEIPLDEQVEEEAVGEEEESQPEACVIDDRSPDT
Chain of UniProt O75469 (whole entry, looked up): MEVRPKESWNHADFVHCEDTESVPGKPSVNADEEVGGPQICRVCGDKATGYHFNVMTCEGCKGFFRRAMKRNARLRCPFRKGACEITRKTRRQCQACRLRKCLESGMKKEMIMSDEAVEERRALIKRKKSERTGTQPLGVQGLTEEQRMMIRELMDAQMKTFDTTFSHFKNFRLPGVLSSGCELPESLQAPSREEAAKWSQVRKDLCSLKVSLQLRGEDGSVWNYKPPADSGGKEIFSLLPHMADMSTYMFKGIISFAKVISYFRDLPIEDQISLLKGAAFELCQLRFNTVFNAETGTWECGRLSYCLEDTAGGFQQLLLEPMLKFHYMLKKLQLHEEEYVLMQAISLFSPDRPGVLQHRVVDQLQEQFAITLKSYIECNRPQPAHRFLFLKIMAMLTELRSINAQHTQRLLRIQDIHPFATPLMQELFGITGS
Chain of UniProt P10632 (whole entry, looked up): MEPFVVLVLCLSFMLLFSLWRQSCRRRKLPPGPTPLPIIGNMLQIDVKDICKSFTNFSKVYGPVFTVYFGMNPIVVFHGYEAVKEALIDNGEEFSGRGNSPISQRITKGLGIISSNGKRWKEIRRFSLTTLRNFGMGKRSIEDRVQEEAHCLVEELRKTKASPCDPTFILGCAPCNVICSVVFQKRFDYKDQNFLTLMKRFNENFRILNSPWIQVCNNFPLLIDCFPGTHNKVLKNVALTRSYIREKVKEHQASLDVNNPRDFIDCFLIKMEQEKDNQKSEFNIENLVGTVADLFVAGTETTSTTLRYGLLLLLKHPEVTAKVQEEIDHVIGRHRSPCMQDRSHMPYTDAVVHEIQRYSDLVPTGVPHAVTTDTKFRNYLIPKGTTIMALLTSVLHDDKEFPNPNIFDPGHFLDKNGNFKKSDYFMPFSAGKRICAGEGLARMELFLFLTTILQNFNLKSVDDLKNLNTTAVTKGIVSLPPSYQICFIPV

For CC(=O)N[C@H](C(=O)N[C@H](C(=O)N[C@@H](CCCNC(=N)N)C(=O)N1Cc2ccccc2C[C@H]1C(=O)N[C@@H](Cc1ccccc1)C(N)=O)C1CCCCC1)C(C)C, the cytokine level was 8310 ± 4560 pg/mL (human PBMC; Bio-Plex multiplex, refers to: IP-10; 500 µg/mL, 24 h).
[64Cu+2].c1cnc(CNCc2ccc(CN3CCCN4CCNCCCN(CC4)CC3)cc2)nc1 has a tissue uptake of 1.63 ± 0.96 %ID/g (CXCR4; NOD/SCID mouse, U87 and U87-stb-CXCR4 xenografts, bladder; iv, 450 min, ex vivo).
For Cc1cc2occ(CC(=O)N3CCC(C(=O)NCc4ccccc4)CC3)c2cc1C, the EC50 was roughly 25 µM (Trypanosoma brucei; cell viability, flow cytometry, PI; bloodstream form; 24 h).
N[C@H](CSC(F)(F)[18F])C(=O)O gave a tracer uptake of 3.74 %ID/g (C6 tumour model; male nude, tumour; intravenous, 3.7 MBq, 1 h, tumour-bearing).
Under “compound fluorescence-only positive cells”, CCCN(CC(=O)N(CCC)CC(=O)N(CCC)CC(=O)N(CCC)CC(=O)N(CC(=O)N(CCC)CC(=O)N(CCC)CC(=O)N(CCC)CC(=O)N(CCC)CC(=O)N(CC(N)=O)Cc1cn(CCCNC(=O)CCCOc2cccc(-c3nc4ccc(-c5nc6ccc(N7CCN(C)CC7)cc6[nH]5)cc4[nH]3)c2)nn1)Cc1cn(CCCNC(=O)CCCOc2cccc(-c3nc4ccc(-c5nc6ccc(N7CCN(C)CC7)cc6[nH]5)cc4[nH]3)c2)nn1)C(=O)CNCc1cn(CCCNC(=O)CCCOc2cccc(-c3nc4ccc(-c5nc6ccc(N7CCN(C)CC7)cc6[nH]5)cc4[nH]3)c2)nn1 is recorded as 71% (C2C12; flow cytometry; 5 µM, 48 h).
With N#C[C@@H]1CCCN1C(=O)CNC(=O)c1ccnc2ccc(OCCCN3CCN(C(=O)CCc4ccc5c(c4)CN4CCN(Cc6cc(CCC(=O)O)ccc6O)CC(=O)[O][Al-]([18F])([O]C(=O)C4)[O]5)CC3)cc12 (some centres unmarked) the tracer uptake was 12.8 %ID/g (U-87 MG tumour model; host not given, tumour; 2 h, tumour-bearing).
CCC(=O)N(C)c1ccc(Cl)c(Cl)c1 has a fold activation of 0.48 fold (NR1I2 (Homo sapiens, UniProt O75469); reporter gene, agonist; 1.0 µM; relative to: vehicle).
With [64Cu+2].c1ccc(CNCc2ccc(CN3CCCN4CCNCCCN(CC4)CC3)cc2)nc1 the tissue uptake was 82 ± 11.7 %ID/g (CXCR4; NOD/SCID mouse, U87 and U87-stb-CXCR4 xenografts, liver; iv, 480 min, ex vivo).
For Clc1cc(Cl)cc(CNCCCNc2nc3ccccc3[nH]2)c1, the selectivity index was 1380 (Trypanosoma brucei; relative to: MRC-5 SV2 TC50 over EC50).
Under “monocyte count increased incidence”, Cn1c(=O)oc2ccc(-c3ccc(CC(C#N)NC(=O)C4CNCCCO4)c(F)c3)cc21 (centres unmarked) is recorded as 11.1% (human; oral, 10 mg once daily, TEAE, multiple ascending dose).
The selectivity index of Clc1ccc(CNCCCNc2nc3ccccc3[nH]2)cc1 is reported as 23 (Trypanosoma brucei; relative to: MRC-5 SV2 TC50 over EC50).
For [11CH3]Oc1ccc(Cc2cn[nH]c2)nc1-c1cccc([N+](=O)[O-])c1, “increase of apparent VT” read 30% (PDE4D (Homo sapiens, UniProt Q08499); PET; human, brain; concentration not given, last 50 min of 20 to 120 min).
COc1ccc2cc(NC(=O)c3cc(-c4ccncc4)nc4ccccc34)ccc2c1 gave a kcat of 0.0103 s⁻¹ (Cytochrome P450 3A4 (CYP3A4, Homo sapiens, UniProt P08684); substrate, refers to: naphthalene-hydroxylated metabolite M2; baculosomes).
NS(=O)(=O)Nc1ncnc(OCCOc2ncc(Br)cn2)c1-c1ccc(Br)cc1 — result for “contribution to total CLint”: 19% (Cytochrome P450 2C12, female-specific (Cyp2c12, Rattus norvegicus, UniProt P11510); metabolite formation; female rat, recombinant enzyme; scaled by relative mRNA abundance).
CCCN(CC(=O)N(CCC)CC(=O)N(CCC)CC(=O)N(CCC)CC(=O)N(CC(=O)N(CCC)CC(=O)N(CCC)CC(=O)N(CCC)CC(=O)N(CCC)CC(=O)N(CC(=O)N(CCC)CC(=O)N(CCC)CC(=O)N(CCC)CC(=O)N(CCC)CC(=O)N(CC(N)=O)Cc1cn(CCCNC(=O)CCCOc2cccc(-c3nc4ccc(-c5nc6ccc(N7CCN(C)CC7)cc6[nH]5)cc4[nH]3)c2)nn1)Cc1cn(CCCNC(=O)CCCOc2cccc(-c3nc4ccc(-c5nc6ccc(N7CCN(C)CC7)cc6[nH]5)cc4[nH]3)c2)nn1)Cc1cn(CCCNC(=O)CCCOc2cccc(-c3nc4ccc(-c5nc6ccc(N7CCN(C)CC7)cc6[nH]5)cc4[nH]3)c2)nn1)C(=O)CNCc1cn(CCCNC(=O)CCCOc2cccc(-c3nc4ccc(-c5nc6ccc(N7CCN(C)CC7)cc6[nH]5)cc4[nH]3)c2)nn1 — result for “propidium iodide-only positive cells”: 0.03% (C2C12; flow cytometry; 5 µM, 48 h).
The tracer uptake of O=C(O)CCC(NP(=O)(O)OCCC[C@@H](NC(=O)CC[C@H](NC(=O)CCCCCNC(=O)c1ccc([18F])cc1)C(=O)O)C(=O)O)C(=O)O (some centres unmarked) is reported as 0.159 %ID/g (CWR22Rv1 tumour model; host not given, lung; 4 h, tumour-bearing).
C=CC(=O)Nc1cc(Nc2nccc(-c3cn(C)c4ccccc34)n2)c(OCC(F)(F)F)nc1N(C)CCN(C)C: “activity vs control” 103% (Cytochrome P450 2C8 (CYP2C8, Homo sapiens, UniProt P10632); enzyme activity, inhibitor; human, liver microsomes; 0.1 µM).
